Measured values collected from several papers.
Every numbered part comes from another study and shows a few of its results, in no order.

Block 1
Target: Sal-like protein 4, full length isoform A (SALL4, Homo sapiens, UniProt Q9UJQ4, residues 1-1053)
Sequence of UniProt Q9UJQ4 (whole entry, looked up): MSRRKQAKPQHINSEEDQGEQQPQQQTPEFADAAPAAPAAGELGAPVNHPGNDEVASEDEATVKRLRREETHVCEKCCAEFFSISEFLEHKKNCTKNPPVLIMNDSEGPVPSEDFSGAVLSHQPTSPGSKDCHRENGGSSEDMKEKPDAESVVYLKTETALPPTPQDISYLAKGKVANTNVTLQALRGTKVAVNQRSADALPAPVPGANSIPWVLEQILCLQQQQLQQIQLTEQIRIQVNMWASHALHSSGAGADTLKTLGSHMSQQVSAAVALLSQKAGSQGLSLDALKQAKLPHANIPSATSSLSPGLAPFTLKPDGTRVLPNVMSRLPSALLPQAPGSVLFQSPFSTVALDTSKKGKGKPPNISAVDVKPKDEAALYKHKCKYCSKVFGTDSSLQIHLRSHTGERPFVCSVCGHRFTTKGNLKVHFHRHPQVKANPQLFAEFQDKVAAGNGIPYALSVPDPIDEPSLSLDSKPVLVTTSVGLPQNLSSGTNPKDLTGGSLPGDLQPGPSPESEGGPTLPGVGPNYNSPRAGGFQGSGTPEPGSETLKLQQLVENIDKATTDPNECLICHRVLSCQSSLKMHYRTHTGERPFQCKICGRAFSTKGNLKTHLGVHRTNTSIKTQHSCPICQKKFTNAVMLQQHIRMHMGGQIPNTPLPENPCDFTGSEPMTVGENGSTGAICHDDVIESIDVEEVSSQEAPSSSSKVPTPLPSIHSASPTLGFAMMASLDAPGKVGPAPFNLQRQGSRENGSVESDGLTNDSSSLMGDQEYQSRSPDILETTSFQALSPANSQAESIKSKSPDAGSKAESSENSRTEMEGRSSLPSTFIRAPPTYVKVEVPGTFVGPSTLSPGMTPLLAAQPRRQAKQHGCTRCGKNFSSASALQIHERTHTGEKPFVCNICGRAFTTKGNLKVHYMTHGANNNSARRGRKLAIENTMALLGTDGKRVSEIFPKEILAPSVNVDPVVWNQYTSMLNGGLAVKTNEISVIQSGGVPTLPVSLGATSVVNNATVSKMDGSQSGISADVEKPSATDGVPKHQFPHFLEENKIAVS
Method: universal PBM
Form: double-stranded DNA, one strand shown
Matrix: in vitro
Tested at: 600 nM
Setting: 8-mer, flanks averaged, mean of replicates
Reading: higher = stronger binding
The E-score of `ACTGGACA` is reported as -0.114.
The E-score of `ACACCGGC` is reported as -0.321.
With `AATATTGC` the E-score was 0.435.
The E-score of `AGTATTAG` is reported as 0.241.
The E-score of `AAGCATTG` is reported as -0.0271.
The E-score of `CGGCTTGA` is reported as -0.191.
With `CTGTCTTC` the E-score was -0.0697.
`GCACCCCA` has an E-score of -0.294.
For `CCGTAAGG`, the E-score was -0.191.
`GTTGCAAA` has an E-score of 0.0972.
`CGCTCCAG` gave an E-score of -0.142.
`CAGCTGGC` gave an E-score of -0.259.
`AAGGTTGC` has an E-score of -0.139.
`ACAGTTTG` has an E-score of 0.0206.
The E-score of `GCTACCCA` is reported as -0.164.
For `CGGAACCC`, the E-score was -0.212.
`GAAAATAC` gave an E-score of 0.177.
`AATAGTGA` has an E-score of 0.241.
`ATACTTGC` gave an E-score of 0.198.
`AAGCCCGG` gave an E-score of -0.35.
`CATGGTAC` has an E-score of 0.00822.
`AGCTTGAG` gave an E-score of -0.14.

Block 2
Target: RNA binding protein fox-1 homolog 2, RRM domain, GST-SBP tag (RBFOX2, Homo sapiens, UniProt O43251-10, residues 100-194)
Method: RNA Bind-n-Seq
Form: RNA
Matrix: in vitro
Tested at: 365 nM
Setting: natural RNA segment, single round, ends assumed
Baseline: no-protein control
Reading: higher = stronger binding
Construct (chain): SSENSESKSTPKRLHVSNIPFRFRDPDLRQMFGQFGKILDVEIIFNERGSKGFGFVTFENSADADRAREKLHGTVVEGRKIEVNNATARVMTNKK
`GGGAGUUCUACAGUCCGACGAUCAGAAAGUCUCUUGACUUAAGUUCUGAGACUCCAAAGACUGCACAUAAGUUUUAGACAUACAAGUGUCUAUCUCAAAGCAGAAGCAGAGAAAACAGAAAGAAGCUACAACAUGGAAUUCUCGGGUGCCAA`: “RBNS enrichment (R)” 0.275.
Under “RBNS enrichment (R)”, `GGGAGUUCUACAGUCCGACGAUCACUAAGCCCCUGCCCCUGAGCUCCAGAGCUGUGUGUUUGGGCAAGGAUGGGCGGGGAUUGGCCGGGGCAGGUUGCCUUUACUAGCCAUUGGCCUGUGUCCGCCACUUGGAUGGAAUUCUCGGGUGCCAA` is recorded as 0.294.
Under “RBNS enrichment (R)”, `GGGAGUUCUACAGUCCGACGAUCUUUAUGACAUUCUCUGUCUACUCAGAUCAUAGUGAAAACUGGAAACAAAAAAAAAAAACAGCCUCUUCUUGGAAAGUGACAGCAGAAGGUGGCAUGGAGCUUGUGUCCUUUGGAAUUCUCGGGUGCCAA` is recorded as 0.734.
`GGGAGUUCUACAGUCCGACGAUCAUAUCUGCUGGUUUAAAUUCUGUCAUAUUUCACUUCUAGCCUUUUAGUAUGGCAAAUCAUAUUUUACUUUUACUUAAGCAUUUGUAAUUUGGAGUAUCUGGUACUAGCUAUGGAAUUCUCGGGUGCCAA`: “RBNS enrichment (R)” 0.377.
For `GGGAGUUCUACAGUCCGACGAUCUUGCACAAUGGUAUAACACGGCAACACGUUGCCUUCUUCAGAAUCCUGGAAAUCGACACACUGAACAGUGCACUUUUAGUUCACUGCUAAACAAAGCACACUUUUCAGGAUGGAAUUCUCGGGUGCCAA`, “RBNS enrichment (R)” read 0.271.
`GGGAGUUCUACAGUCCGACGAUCCAUUUAUUCUUCUUUUCCAAUUGAACUUUCACAUAGCACAGAAAAAAUUCAAACUGCCUAUAUUGAUAAAACCAUACAGUGAGCCAGCCUUGCAGUAGGCAGUAGACUAUUGGAAUUCUCGGGUGCCAA` — result for “RBNS enrichment (R)”: 0.485.
For `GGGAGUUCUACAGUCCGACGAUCUAAUACAUCAUUCCAGUCUUGCUGGUAAUUUUGUACAGUAUAGUGUAUGAAUUGCUGUGCUGCAAAGCCAAACAGCUGCAAAAUGUUGAAAAAUCAUCGAAAUGUAUAAAUGGAAUUCUCGGGUGCCAA`, “RBNS enrichment (R)” read 0.525.
`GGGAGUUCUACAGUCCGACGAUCAGUAUGUUCUGUGUCUCCACUAGCCACUUCUGGGGAGUGCCUGAAGCUCUUUGACUUUGACAAGAGGUUCUAGUUAAAGCACACACUUAAUCUACAGCCACUCUCUACCUUGGAAUUCUCGGGUGCCAA` — result for “RBNS enrichment (R)”: 0.274.

Block 3
Target: Centromere-binding protein 1, full length, N-terminal tag (CBF1, Saccharomyces cerevisiae, UniProt P17106, residues 1-351)
Sequence of UniProt P17106 (whole entry, looked up): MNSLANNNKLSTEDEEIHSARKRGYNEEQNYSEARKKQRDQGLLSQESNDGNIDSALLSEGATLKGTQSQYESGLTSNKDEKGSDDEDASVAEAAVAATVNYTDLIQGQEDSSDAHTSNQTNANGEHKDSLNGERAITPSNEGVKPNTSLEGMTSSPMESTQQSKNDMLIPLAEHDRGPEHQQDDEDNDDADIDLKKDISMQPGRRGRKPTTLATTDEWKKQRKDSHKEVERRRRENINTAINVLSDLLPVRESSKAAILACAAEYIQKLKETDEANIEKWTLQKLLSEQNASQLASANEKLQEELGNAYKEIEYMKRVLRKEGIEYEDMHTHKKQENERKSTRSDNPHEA
Method: protein-binding microarray
Form: double-stranded DNA, one strand shown
Matrix: in vitro
Tested at: 0.8 µM
Setting: whole 60-bp probe, no competitor
Reading: higher = stronger binding
The fluorescence intensity of `CTAAACGCCAACTCTCACATGGTAGCAGGCGGGTTCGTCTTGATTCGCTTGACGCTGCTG` is reported as 625 a.u.
The fluorescence intensity of `CTATGGCTTGATGACCACATGGCTATGATTTTATTCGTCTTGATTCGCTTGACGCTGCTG` is reported as 723 a.u.
`CTAATAAGGCGTTAGATGGTGACATAAGGTATGTTCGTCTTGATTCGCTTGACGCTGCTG` gave a fluorescence intensity of 502 a.u.
`CTAAGACTTGAGTGCCATCAGCAAAGAAAAATATTCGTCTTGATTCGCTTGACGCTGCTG` gave a fluorescence intensity of 524 a.u.
`CTAAAAATTTTTGTTCACGTTGAACAGAGGGTATTCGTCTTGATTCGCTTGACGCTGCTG` gave a fluorescence intensity of 704 a.u.
`CTATAACCCCAATGGAAGGTGACGATCACTTCTTTCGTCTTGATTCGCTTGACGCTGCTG` gave a fluorescence intensity of 512 a.u.
`CTATCCAGAGTAATCCTGATGTTCTATTACCGATTCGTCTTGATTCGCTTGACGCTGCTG` gave a fluorescence intensity of 483 a.u.
With `GAACGGAATGGTAAACATCAGACGCGCTTTCCGTAGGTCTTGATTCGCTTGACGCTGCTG` the fluorescence intensity was 505 a.u.
For `GAACAGATGTCTGGTCTGGTGGTATCGTATACATAGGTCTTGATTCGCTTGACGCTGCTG`, the fluorescence intensity was 558 a.u.
For `CTATTTCAAAATGATGGTGATGATAAAAATAAGTTCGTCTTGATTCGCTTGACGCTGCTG`, the fluorescence intensity was 609 a.u.
`GAATGCTTAATAATTAGCGTGATTTCAATGGAATAGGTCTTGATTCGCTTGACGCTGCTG` has a fluorescence intensity of 639 a.u.
`CTAATTCCTCTATGGCGTGTGATGTCTGTATCTTTCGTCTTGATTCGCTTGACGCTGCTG` has a fluorescence intensity of 574 a.u.
With `TGTACGAAGCTATTTTTCCACGTTATAGTAGTTAGGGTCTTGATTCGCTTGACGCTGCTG` the fluorescence intensity was 555 a.u.
For `CTAAACGGCTACCGCGCGGTGACGAATCAATGCTTCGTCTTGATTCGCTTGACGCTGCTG`, the fluorescence intensity was 491 a.u.
`CTAACTGTCTCAAAGCACATGAAGAAGGAAAAATTCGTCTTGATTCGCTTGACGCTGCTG` has a fluorescence intensity of 612 a.u.
For `CTATAGTCATATTACCACGTGGAGCATCATGAATTCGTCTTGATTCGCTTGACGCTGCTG`, the fluorescence intensity was 4790 a.u.
The fluorescence intensity of `CTAAAATTACGAGATCAGCAGAAAATAAAATTCTTCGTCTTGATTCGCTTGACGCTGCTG` is reported as 513 a.u.
`CTATAAACTATTACCCACGGGATACCTGCTAGGTTCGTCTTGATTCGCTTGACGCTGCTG` gave a fluorescence intensity of 572 a.u.
The fluorescence intensity of `GAAGTTAAACGAATGCACGAGTATCATGCATCTTAGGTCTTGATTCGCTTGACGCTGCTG` is reported as 580 a.u.

Block 4
Target: Interferon regulatory factor 5, full length, phosphomimetic (IRF5, Homo sapiens, UniProt Q13568-2, residues 1-514, K96S/S451D/S453D/S456D/S462D)
Method: protein-binding microarray
Form: double-stranded DNA, one strand shown
Matrix: in vitro
Tested at: 250 nM
Setting: 60-bp whole probe
With: salmon DNA 0.4 mg/ml
Baseline: random background probes
Reading: higher = stronger binding
Shared flanks, not repeated: GCCTAGCAC … GTCTTGATTCGCTTGACGCTGCTG
For `GACGTACTGGGGTTTCGGGACGTGCTA`, the log fluorescence was 1.05 z-score.
With `TTAGGTTTCGGTTTCGGTGAGTGCTAG` the log fluorescence was 11.5 z-score.
For `GACGAACTGACTTTCGAGACGTGCTAG`, the log fluorescence was 5.52 z-score.
`TTAGCTTCCAGTTTCGATTAGTGCTAG` gave a log fluorescence of 9.91 z-score.
`TTTTTTTTTTTTTTTTACTTGTGCTAG` gave a log fluorescence of 1.46 z-score.
The log fluorescence of `TATCAGTTTAATATCTAAGAGTGCTAG` is reported as 6.86 z-score.
`TTAGGTATCGTGTTTCGGTTAGTGCTA` has a log fluorescence of 8.28 z-score.
For `TTTCTTTTCCATTTTGTGTTGTGCTAG`, the log fluorescence was 5.88 z-score.
`CAAAAATGATTGGTTGAACAGTGCTAG` gave a log fluorescence of 0.551 z-score.
The log fluorescence of `GACGATTTCGGGTATCGAGAAGTGCTA` is reported as 5.29 z-score.
`GACGATCTTAGTTTCGAGACGTGCTAG` gave a log fluorescence of 5.6 z-score.
`TCAATTTTGCTTTCATTACTGTGCTAG` has a log fluorescence of 4.96 z-score.
The log fluorescence of `ATTTTTTTCTAATTGAAATCGTGCTAG` is reported as 1.4 z-score.
`GACGCTCTCCTTCTCCTGACGTGCTAG` has a log fluorescence of -0.108 z-score.
The log fluorescence of `TTAGGTATCCTTCTCCTTTGGTGCTAG` is reported as 0.289 z-score.
With `TTAGATTTCAGTCGCGATTAGTGCTAG` the log fluorescence was 1.67 z-score.
The log fluorescence of `GACGAACTGGGGTTTCAAGACGTGCTA` is reported as -0.203 z-score.
`TCAACTTTCTTTAACATACTGTGCTAG` has a log fluorescence of 1.92 z-score.
`TCATGTCCCCCTTTTATACTGTGCTAG` has a log fluorescence of 0.008 z-score.

For quick reference, copied from above (block 4):
With `TTAGGTTTCGGTTTCGGTGAGTGCTAG` the log fluorescence was 11.5 z-score.
For `GACGAACTGACTTTCGAGACGTGCTAG`, the log fluorescence was 5.52 z-score.
`TTAGCTTCCAGTTTCGATTAGTGCTAG` gave a log fluorescence of 9.91 z-score.
`TTTTTTTTTTTTTTTTACTTGTGCTAG` gave a log fluorescence of 1.46 z-score.
The log fluorescence of `TATCAGTTTAATATCTAAGAGTGCTAG` is reported as 6.86 z-score.
`TTAGGTATCGTGTTTCGGTTAGTGCTA` has a log fluorescence of 8.28 z-score.
